Measurements from different studies.
Each line is one published result; not all experiments were run side by side. Several values in a cell are separate wells, animals, samples, runs or records. ± marks the error that the study gave.
Target: Acetylcholinesterase (ache, Electrophorus electricus, UniProt O42275)
Chain of UniProt O42275 (whole entry, looked up): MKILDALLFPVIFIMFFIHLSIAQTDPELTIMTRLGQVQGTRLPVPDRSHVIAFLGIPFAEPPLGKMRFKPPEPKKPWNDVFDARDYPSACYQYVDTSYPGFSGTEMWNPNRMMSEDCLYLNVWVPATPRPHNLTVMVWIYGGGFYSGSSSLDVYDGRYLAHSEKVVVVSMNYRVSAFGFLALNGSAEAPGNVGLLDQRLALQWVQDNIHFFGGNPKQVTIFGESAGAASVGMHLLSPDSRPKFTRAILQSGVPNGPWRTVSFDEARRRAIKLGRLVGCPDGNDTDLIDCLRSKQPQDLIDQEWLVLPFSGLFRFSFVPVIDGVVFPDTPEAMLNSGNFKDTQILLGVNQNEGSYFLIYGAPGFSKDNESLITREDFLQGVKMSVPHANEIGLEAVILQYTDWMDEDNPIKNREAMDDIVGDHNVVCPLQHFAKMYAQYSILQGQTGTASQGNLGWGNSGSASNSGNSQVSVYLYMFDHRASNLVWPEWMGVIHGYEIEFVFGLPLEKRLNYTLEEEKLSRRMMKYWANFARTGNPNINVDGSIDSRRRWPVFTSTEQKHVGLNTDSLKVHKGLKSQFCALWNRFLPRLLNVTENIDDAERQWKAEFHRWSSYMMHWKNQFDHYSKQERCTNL
Mode: inhibitor

`CC(=O)C1=C(C)NC(SCCCSc2nnc(Cc3ccccc3Nc3c(Cl)cccc3Cl)n2-c2ccc(Cl)c(Cl)c2)=NC1c1ccccc1` (stereo not drawn) gave an IC50 of 0.47 µM (enzyme activity, Ellman).
`Cc1ccc(-c2nc3ccc(/N=N/c4ccc(Br)cc4)cc3c(-c3ccccc3)c2I)cc1` has an IC50 of 12 µM (enzyme activity, Ellman; pH 7.4).
`C/C(=C\CO)CCCC(C)CCCC(C)CCCC(C)C` (stereo not drawn) gave an IC50 of 42.2 µM (enzyme activity).
`CCCCCc1nc2ccc(/N=N/c3ccc([N+](=O)[O-])cc3)cc2c(-c2ccccc2)c1I` has an IC50 of 16.8 µM (enzyme activity, Ellman; pH 7.4).
The IC50 of `Cc1nc(-c2ccc(Cl)cc2)nc2sc3c(=O)n(CCN4CCOCC4)cnc3c12` is reported as 0.854 µM (enzyme activity, Ellman).
For `O=C(CN1C(=O)c2ccccc2C1=O)Nc1cc[n+](Cc2cccc(Cl)c2)cc1`, the IC50 was 7.4 µM (enzyme activity, Ellman).
The IC50 of `CCOc1cc(/C=N/NC(=O)COc2ccc(Sc3ccc(OCC(=O)N/N=C/c4ccc(O)c(OCC)c4)cc3)cc2)ccc1O` is reported as 36.3 µM (enzyme activity).
The IC50 of `COc1cc2c(cc1OC)C(=O)C1(C2)C(c2cccc([N+](=O)[O-])c2)C(Cc2ccccc2)NC12C(=O)Nc1ccc(OC(F)(F)F)cc12` (stereo not drawn) is reported as 2.21 ± 0.18 µM (enzyme activity; pH 8).
`COc1ccc(/C=N/NC(=O)COc2ccc(Sc3ccc(OCC(=O)N/N=C/c4ccc(OC)c(OC)c4)cc3)cc2)cc1OC` gave an IC50 of 25.7 µM (enzyme activity).
`COc1ccc([N+](=O)[O-])cc1NC(=O)CCC(=O)[O][Zn][O]C(=O)CCC(=O)Nc1cc([N+](=O)[O-])ccc1OC.c1ccncc1` has an IC50 of 317 µM (enzyme activity).
The IC50 of `COc1cc(/C=C/C(=O)NC(C)C(N)=O)ccc1OCc1ccccc1` (stereo not drawn) is reported as 15.2 µM (enzyme activity, Ellman).
`COc1cc2c(cc1OC)C(=O)C1(C2)C(c2ccc(Cl)cc2)C(Cc2c[nH]c3ccccc23)NC12C(=O)Nc1ccc(OC(F)(F)F)cc12` (stereo not drawn) gave an IC50 of < 10 µM and 7.22 µM (enzyme activity; pH 8).
The IC50 of `CCN(CC)c1ccc(/C=N/NC(=O)COc2ccc(Sc3ccc(OCC(=O)N/N=C/c4ccc(N(CC)CC)cc4)cc3)cc2)cc1` is reported as 33.5 µM (enzyme activity).
For `COc1cc2c(cc1O)CCN1Cc3c(ccc(O)c3OC)C[C@@H]21`, the IC50 was 27 µM (enzyme activity).
With `CC(C)=CCCC1(C)C=Cc2c(ccc3cc(-c4cc(O)cc(O)c4CC=C(C)C)oc23)O1` (stereo not drawn) the IC50 was 4.61 µM (enzyme activity).
The IC50 of `COc1ccc2c(c1)C(=O)c1nccc3cc4c(c-2c13)OCO4` is reported as 73.1 µM (enzyme activity).
For `COc1ccc2cc(/C=N/C3CCN(Cc4ccccc4)CC3)ccc2c1`, the IC50 was > 10 µM.
The IC50 of `COc1ccc(C2N=C(SCCCSc3nnc(Cc4ccccc4Nc4c(Cl)cccc4Cl)n3-c3ccc(Cl)c(Cl)c3)NC(C)=C2C(C)=O)cc1` (stereo not drawn) is reported as 0.53 µM (enzyme activity, Ellman).
With `CCC1c2cc(OC)c(O)cc2C(c2ccc(O)c(OC)c2)C1C` (stereo not drawn) the IC50 was 287 µM (enzyme activity, Ellman; pH 7.5).
For `CC(C)c1ccc(/C=N/NC(=O)COc2ccc(Sc3ccc(OCC(=O)N/N=C/c4ccc(C(C)C)cc4)cc3)cc2)cc1`, the IC50 was 193 µM (enzyme activity).
With `COc1ccc(CNc2c(NC3CCN(Cc4ccccc4)CC3)c(=O)c2=O)cc1` the IC50 was 7 µM (enzyme activity, Ellman).
For `COc1cc2c(cc1OC(C)=O)C1Cc3ccc(OC(C)=O)c(OC)c3CN1CC2` (stereo not drawn), the IC50 was 15.4 µM (enzyme activity).
For `O=C(COc1ccc(Sc2ccc(OCC(=O)N/N=C/c3ccccc3Cl)cc2)cc1)N/N=C/c1ccccc1Cl`, the IC50 was 235 µM (enzyme activity).
The IC50 of `COc1cc2c(cc1OC)C(=O)C1(C2)C(c2ccccc2)C(Cc2ccccc2)NC12C(=O)Nc1ccc(OC(F)(F)F)cc12` (stereo not drawn) is reported as > 10 µM and 10.6 µM (enzyme activity; pH 8).
`COc1ccccc1/C=N/NC(=O)COc1ccc(Sc2ccc(OCC(=O)N/N=C/c3ccccc3OC)cc2)cc1` gave an IC50 of 49.1 µM (enzyme activity).
`COc1cc2c(cc1OC)C(=O)C(C(O)CC1CCN(Cc3ccccc3)CC1)C2` (stereo not drawn) gave an IC50 of 0.362 µM (enzyme activity, Ellman).
With `O=C(CN1C(=O)c2ccccc2C1=O)Nc1ccc[n+](Cc2cccc(Cl)c2)c1` the IC50 was 6.7 µM (enzyme activity, Ellman).
With `COCc1cc(C)nc(SCC[N+](C)(C)CC(=O)Nc2cccc(C(F)(F)F)c2)c1C#N` the IC50 was 32.3 µM.
With `COc1cc2c(cc1OC)C(=O)C1(C2)C(c2ccc(Cl)cc2Cl)C(Cc2ccccc2)NC12C(=O)Nc1ccc(OC(F)(F)F)cc12` (stereo not drawn) the IC50 was 8.49 ± 0.16 µM (enzyme activity; pH 8).
`Nc1ccc(Nc2c(NC3CCN(Cc4ccccc4)CC3)c(=O)c2=O)cc1` has an IC50 of 4.4 µM (enzyme activity, Ellman).
With `COc1cc2c(cc1OC)C(=O)C1(C2)C(c2ccccc2C)C(Cc2c[nH]c3ccccc23)NC12C(=O)Nc1ccc(OC(F)(F)F)cc12` (stereo not drawn) the IC50 was 6.43 µM and < 10 µM (enzyme activity; pH 8).
`O=C(CN1C(=O)c2ccccc2C1=O)Nc1ccc[n+](Cc2ccccc2)c1` has an IC50 of 2.6 µM (enzyme activity, Ellman).
With `COc1cc2c(cc1OC)C(=O)C1(C2)C(c2ccccc2OC)C(Cc2ccccc2)NC12C(=O)Nc1ccc(OC(F)(F)F)cc12` (stereo not drawn) the IC50 was 6.41 ± 0.1 µM (enzyme activity; pH 8).
The IC50 of `N#Cc1ccc(Cn2cccc2C(/C=C/c2ccccc2)=N/NC(=N)N)cc1` is reported as 56.1 µM (enzyme activity, Ellman).
`COc1cc2c(cc1OC)C(=O)C(C(=O)CC1CCN(Cc3ccccc3)CC1)C2` (stereo not drawn) gave an IC50 of 0.088 µM (enzyme activity, Ellman).
The IC50 of `CCCCc1nc2ccc(/N=N/c3ccc(Cl)cc3)cc2c(-c2ccccc2)c1I` is reported as 6.2 µM (enzyme activity, Ellman; pH 7.4).
For `CCN(CCCCOc1c(OC)cc(C(=O)N2CCC(Cc3ccccc3)CC2)cc1OC)Cc1ccccc1`, the IC50 was 1.9 µM (enzyme activity, Ellman).
`Ic1ccccc1/N=N/c1ccc2nc(-c3ccccc3)cc(-c3ccccc3)c2c1` has an IC50 of 13.1 µM (enzyme activity, Ellman; pH 7.4).
With `CC(C)=C[C@H]1C[C@](C)(O)[C@@H]2[C@H]3CC[C@@H]4[C@@]5(C)CC[C@H](O[C@@H]6OC[C@H](O)[C@H](O[C@@H]7O[C@H](CO)[C@@H](O)[C@H](O)[C@H]7O)[C@H]6O[C@@H]6O[C@@H](CO)[C@H](O)[C@H]6O)C(C)(C)[C@@H]5CC[C@@]4(C)[C@@]34CO[C@@]2(C4)O1` the IC50 was 12.8 µM (enzyme activity, Ellman).
For `COc1cc2c(cc1O)[C@@H]1Cc3ccc(OC(C)=O)c(OC)c3CN1CC2`, the IC50 was 41.5 µM (enzyme activity).
`C[n+]1ccc2c(c1)[nH]c1ccccc12` has an IC50 of 6.6 µM (enzyme activity).
`C=CCc1ccc(OCC(=C)C)c(OC)c1` has an IC50 of 146 µM (enzyme activity, Ellman; pH 7.5).
